Published values gathered from unrelated publications.
Each numbered part is a random draw from the data of one study; scales do not carry over between parts.

Series 1
Target: Histone acetyltransferase KAT6A, both winged helices, GST fusion (KAT6A, Homo sapiens, UniProt Q92794, residues 1-181)
Method: protein binding microarray
Molecule type: double-stranded DNA, one strand shown
Matrix: in vitro
Tested at: not given
Setting: 8-mer, flanks averaged, mean of 2 arrays, mostly near background
Relative to: not given
Direction: higher = stronger binding
Construct (chain): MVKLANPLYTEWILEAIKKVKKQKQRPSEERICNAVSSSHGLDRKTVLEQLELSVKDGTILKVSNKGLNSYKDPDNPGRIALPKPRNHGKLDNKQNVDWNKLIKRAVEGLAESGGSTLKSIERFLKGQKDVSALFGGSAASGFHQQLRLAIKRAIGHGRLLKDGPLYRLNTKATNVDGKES
| Strand | E-score |
| --- | --- |
| CACCATAG | -0.27 |
| CAAAAATG | -0.0179 |
| CTATCTCA | -0.22 |
| CATGAACC | 0.00709 |
| ACTGCCAG | -0.0482 |
| TCAAGGCA | -0.349 |
| CGACTAAG | 0.0376 |
| GAAGAACC | -0.216 |

Series 2
Target: Replicase polyprotein 1ab, polymerase (rep, Severe acute respiratory syndrome coronavirus 2, UniProt P0DTD1)
Observed: enzyme activity
Action: inhibitor
Tested at: 20 µM
| Compound | inhibition [%] |
| --- | --- |
| Oc1c(I)cc(I)c(O)c1I | 3.65 |
| NC(=NCCC[C@H](N)C(=O)O)N[N+](=O)[O-] | -6.71 |
| NC(N)=NCCC[C@H](NC(=O)c1sccc1NS(=O)(=O)c1cccc2nsnc12)C(=O)O | 4.27 |
| Cc1cc(-n2c(=O)[nH]c(=O)n(C)c2=O)ccc1Oc1ccc(SC(F)(F)F)cc1 | -4.75 |
| COc1ccc(N(C)c2nc(C)nc3ccccc23)cc1 | -9.26 |
| CCc1cc(-c2n[nH]c(C)c2-c2ccc3c(c2)OCCO3)c(O)cc1O | 0.78 |
| CCCCC1(C2CCCC2)Cc2cc(OCCCC(=O)O)c(Cl)c(Cl)c2C1=O (centres unmarked) | -6.95 |
| NC[C@@H]1CC[C@@H](N)[C@@H](O[C@H]2[C@H](O)[C@@H](O[C@H]3O[C@H](CO)[C@@H](O)[C@H](N)[C@H]3O)[C@H](N)C[C@@H]2N)O1 | -7.71 |
| CC(C)c1cc(-c2n[nH]c(=O)n2-c2ccc3c(ccn3C)c2)c(O)cc1O | -7.17 |
| CC1=C(C(=O)Nc2cc3cn[nH]c3cc2F)C(c2ccc(C(F)(F)F)cc2)CC(=O)N1 (centres unmarked) | 2.65 |
| CN1C[C@@H]2c3ccccc3Oc3ccc(Cl)cc3[C@H]2C1 (racemic) | -5.23 |
| O=C(NCC1(N2CCN(c3ccccc3)CC2)CCOCC1)c1cccnc1Sc1ccccc1 | 13.2 |
| CN(C)C(=O)n1nnnc1Cc1ccc(-c2ccccc2)cc1 | -3.38 |
| CC1CCc2c(cc(Br)c(F)c2Br)N1C=O (centres unmarked) | -7.11 |
| CC[C@H]1OC(=O)[C@H](C)C(=O)[C@H](C)[C@@H](O[C@@H]2O[C@H](C)C[C@H](N(C)C)[C@H]2O)[C@](C)(OC)C[C@@H](C)C(=O)[C@H](C)[C@H]2N(CCCCn3cnc(-c4cccnc4)c3)C(=O)O[C@]12C | -3.09 |
| O=C(O)c1cc(O)c2c(c1)C(=O)c1cccc(O)c1C2=O | -0.15 |
| COC(=O)[C@]12CCC(C)(C)C[C@H]1[C@H]1C(=O)C=C3[C@@]4(C)C=C(C#N)C(=O)C(C)(C)[C@@H]4CC[C@@]3(C)[C@]1(C)CC2 | -5.27 |
| CCCCC(CC)COc1ccc(-c2nc(-c3ccc(OC)cc3)nc(-c3ccc(OCC(CC)CCCC)cc3O)n2)c(O)c1 (centres unmarked) | -9.23 |
| O=C(NCc1ccccn1)Nc1nnc(-c2ccco2)o1 | 3.17 |
| Cc1coc2c1C(=O)C(=O)c1c-2ccc2c(C)cccc12 | 10.5 |
| N[C@H](C(=O)O)c1ccc(C(=O)O)c(O)c1 | -1.79 |
| CN1CCC2=C(C1)C(c1ccccc1)c1ccccc12 (centres unmarked) | 0.65 |
| CCC(=O)O[C@@H]1CC(=O)O[C@H](C)C/C=C/C=C/[C@H](OC(C)=O)[C@H](C)C[C@H](CC=O)[C@H](O[C@@H]2O[C@H](C)[C@@H](O[C@H]3C[C@@](C)(OC(C)=O)[C@@H](OC(=O)CC)[C@H](C)O3)[C@H](N(C)C)[C@H]2O)[C@H]1OC | -1.6 |
| N[C@@H](C(=O)N[C@@H]1C(=O)N2C(C(=O)O)=C(Cl)CS[C@H]12)c1ccccc1 | 0.66 |
| CC(=O)OCC(=O)[C@@]1(O)CC[C@H]2[C@@H]3CCC4=CC(=O)C=C[C@]4(C)[C@H]3[C@@H](O)C[C@@]21C | 18.2 |

Series 3
Cell line: HEK-293T
Observed: pseudovirus infection
Method: FDA-approved drug library screen
Organism: VSV pseudotyped with SARS-CoV-2 spike
Tested at: 10 µM
Time: 16 h
Relative to: vehicle-treated
| SMILES | GFP-positive cells [%] |
| --- | --- |
| CC1=C(CC(=O)O)c2cc(F)ccc2/C1=C\c1ccc([S+](C)[O-])cc1 (centres unmarked) | 96.6 |
| Cc1nnc(NS(=O)(=O)c2ccc(N)cc2)s1 | 82 |
| Cc1cccn2c(=O)c(-c3nnn[nH]3)cnc12 | 97.4 |
| CCN1CCN(C(=O)N[C@@H](C(=O)N[C@@H]2C(=O)N3[C@@H]2SC(C)(C)[C@@H]3C(=O)O)c2ccccc2)C(=O)C1=O | 76 |
| Nc1ccn([C@H]2CC[C@@H](CO)O2)c(=O)n1 | 89.5 |

Series 4
Target: RNA binding protein fox-1 homolog 2, RRM domain, GST-SBP tag (RBFOX2, Homo sapiens, UniProt O43251-10, residues 100-194)
Method: RNA Bind-n-Seq
Molecule type: RNA
Matrix: in vitro
Tested at: 365 nM
Setting: natural RNA segment, single round, ends assumed
Relative to: no-protein control
Direction: higher = stronger binding
All sequences stand within: GGGAGUUCUACAGUCCGACGAUC … UGGAAUUCUCGGGUGCCAA
Construct (chain): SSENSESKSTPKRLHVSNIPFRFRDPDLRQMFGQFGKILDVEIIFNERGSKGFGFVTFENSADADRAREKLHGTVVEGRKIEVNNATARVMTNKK
| Strand | RBNS enrichment (R) |
| --- | --- |
| AUGGAAAUUAUUUUUCCAAAAUAAAGGAGAUAAAGUGCCAUCCCAAAACACACAGAUAUUAUUAGAGAGACUUUACUUUCUAGUGCUGGAAUAACCAUGGAGCAAAGAGA | 0.356 |
| CUCUAGCAGCUUCCACAGACUUGGCUCGUGGCCUUCCUUAUAUCCACUGGGAACAAACAGCCUCGCGCUCUAUACCAAACAGCCUCGCGCUCUAUCCCAGUCGCCCAUUA | 0.252 |
| CAGGGAUAAAAGUAUCCUUUGUUCAAUGAGUAGAAAACUAGAUUAUCUAUUAAUAUUUAAGACCAGGAAAAAAAAAAAAGAGGCUUAAGAGUAAGCCUGGAAAAUCUCAC | 0.669 |
| ACAAACAAAAAAAUGGCGUCAUGAAUAUGAACAGCAUUGUCAGAUGAAUUAGUUGAAGUGGUUUUUUUUUUGUUUUUUUUUUUUUUUUGUACUGUGUCCUCAAAUUUAAU | 0.55 |
| UAUGGGUUCCUCUGAGUUGUUUUAGAAAAUUAGCGCAAUGUAUUAAAAUCAAGUGUUAGGAAAUUUCAUGGUCUUACCUACAAUAACUUUUAUUUUGGAAUUGAACUAUU | 0.619 |
| CCUGCCCAAACUGUCCAUUCCAGCAGCUCCUGCCCCCUUCUCUGUACUUGCUUCUGUCUGACACCUUCUCCCUGUUGGCCUGAAGGGAGCUUAGAAUGCAGCCCUACCUG | 1.4 |
| CAUCAGCUACCCCUGCAGCUGGGGAAGACUUAUGCCAUCCCGGCAGCGAGGCUGGGCUGGCCAGCCACCACUGACUAUACCAACUGGGCCUCUGAUGUUCUUCCAGUGAG | 0.221 |
| CUCAGCUUUUGGGCUAGCCCAGGCUUCCCUAAGAUCUGCUUUUUCUAUUUCUCCCAACCAAAUCCUCUUAAAGACCCUUUGCUAUGUAGUCUCAUGGUCUAGCAUGCAUC | 3.03 |

Series 5
Target: Replicase polyprotein 1ab, main protease (rep, Severe acute respiratory syndrome coronavirus 2, UniProt P0DTD1)
Observed: enzyme activity
Action: inhibitor
Tested at: 20 µM
Setting: hit confirmation, with DTT
| Compound | inhibition |
| --- | --- |
| O=C(O)c1ccc(SSc2ccc(C(=O)O)cn2)nc1 | 1.5% |
| O=C(O)C(=O)CBr | -18.7% |
| Oc1ccc(C2CNCCc3c2cc(O)c(O)c3Cl)cc1 (centres unmarked) | -21.7% |
| CNc1nc(Nc2cn(C(C)(C)C#N)nc2C)ncc1C(F)(F)F | -11.9% |

For quick reference, copied from above (series 4):
| Strand | RBNS enrichment (R) |
| --- | --- |
| UAUGGGUUCCUCUGAGUUGUUUUAGAAAAUUAGCGCAAUGUAUUAAAAUCAAGUGUUAGGAAAUUUCAUGGUCUUACCUACAAUAACUUUUAUUUUGGAAUUGAACUAUU | 0.619 |
| CAGGGAUAAAAGUAUCCUUUGUUCAAUGAGUAGAAAACUAGAUUAUCUAUUAAUAUUUAAGACCAGGAAAAAAAAAAAAGAGGCUUAAGAGUAAGCCUGGAAAAUCUCAC | 0.669 |
| CUCUAGCAGCUUCCACAGACUUGGCUCGUGGCCUUCCUUAUAUCCACUGGGAACAAACAGCCUCGCGCUCUAUACCAAACAGCCUCGCGCUCUAUCCCAGUCGCCCAUUA | 0.252 |
| CCUGCCCAAACUGUCCAUUCCAGCAGCUCCUGCCCCCUUCUCUGUACUUGCUUCUGUCUGACACCUUCUCCCUGUUGGCCUGAAGGGAGCUUAGAAUGCAGCCCUACCUG | 1.4 |
